Measured values of several laboratories.
Each numbered part is a random draw from the data of one study; scales do not carry over between parts.

Block 1
Target: Serine/threonine-protein kinase PknB (pknB, Mycobacterium tuberculosis, UniProt P9WI81)
Sequence of UniProt P9WI81 (whole entry, looked up): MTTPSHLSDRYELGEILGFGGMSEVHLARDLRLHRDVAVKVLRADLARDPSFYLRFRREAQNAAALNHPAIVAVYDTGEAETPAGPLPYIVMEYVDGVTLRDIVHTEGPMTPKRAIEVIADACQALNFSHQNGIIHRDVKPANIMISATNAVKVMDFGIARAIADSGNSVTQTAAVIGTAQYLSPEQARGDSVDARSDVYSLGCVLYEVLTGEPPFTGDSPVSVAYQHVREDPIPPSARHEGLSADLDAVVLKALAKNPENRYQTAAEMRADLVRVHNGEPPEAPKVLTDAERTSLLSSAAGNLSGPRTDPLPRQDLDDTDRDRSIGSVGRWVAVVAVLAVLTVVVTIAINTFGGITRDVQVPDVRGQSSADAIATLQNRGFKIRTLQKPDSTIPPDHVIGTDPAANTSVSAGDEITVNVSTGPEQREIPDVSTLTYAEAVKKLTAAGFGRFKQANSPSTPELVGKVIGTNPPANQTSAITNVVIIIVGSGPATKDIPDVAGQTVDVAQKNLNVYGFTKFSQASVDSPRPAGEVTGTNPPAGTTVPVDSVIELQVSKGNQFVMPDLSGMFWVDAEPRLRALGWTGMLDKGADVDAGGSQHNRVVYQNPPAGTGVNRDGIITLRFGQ
Observed: cell-free assay
Method: competition with immobilised ligand
Concentration: 1 µM
Endpoint: remaining binding
Structure (SMILES) = NS(=O)(=O)c1cc(NC(=O)Cc2ccccc2)ccc1Oc1cccc(Cl)c1; result = 89%
Structure (SMILES) = CCS(=O)(=O)c1cc2cc(C[C@@](O)(CC(C)(C)c3ccc(F)cc3C(N)=O)C(F)(F)F)[nH]c2cn1; result = 84%
Structure (SMILES) = Cc1nccc(COC(=O)N2C[C@@H]3[C@@H](CNC(=O)c4ccc5[nH]nnc5c4)[C@@H]3C2)n1; result = 100%
Structure (SMILES) = CO[C@@H](C)c1c(Nc2ccc([C@H](N(C)C(=O)C3CCS(=O)(=O)CC3)C(F)(F)F)cc2)cnc2cc(Cl)nn12; result = 87%
Structure (SMILES) = N#CC1(c2ccccn2)CCN(Cc2cc(C(=O)N3CCCC3)c(=O)n3ccccc23)CC1; result = 92%

Block 2
Target: Calcium/calmodulin-dependent protein kinase type II subunit alpha (CAMK2A, Homo sapiens, UniProt Q9UQM7)
Sequence of UniProt Q9UQM7 (whole entry, looked up): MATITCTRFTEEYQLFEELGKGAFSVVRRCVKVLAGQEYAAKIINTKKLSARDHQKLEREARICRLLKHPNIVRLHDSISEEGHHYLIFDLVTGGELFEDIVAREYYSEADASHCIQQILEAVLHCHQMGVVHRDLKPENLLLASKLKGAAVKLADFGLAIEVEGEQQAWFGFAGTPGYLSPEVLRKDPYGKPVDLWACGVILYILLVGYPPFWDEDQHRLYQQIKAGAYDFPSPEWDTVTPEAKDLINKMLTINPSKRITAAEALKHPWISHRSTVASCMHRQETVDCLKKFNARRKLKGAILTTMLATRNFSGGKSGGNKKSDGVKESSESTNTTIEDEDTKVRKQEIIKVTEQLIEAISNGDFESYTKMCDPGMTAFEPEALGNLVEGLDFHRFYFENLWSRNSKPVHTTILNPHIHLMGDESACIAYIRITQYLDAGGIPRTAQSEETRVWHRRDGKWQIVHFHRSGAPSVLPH
Observed: enzyme activity
Action: inhibitor
Concentration: 10 µM
Endpoint: inhibition
Structure (SMILES) = CCOC1c2c(ccc3c2OCO3)-c2ccc3cc4c(cc3c2N1C)OCO4 (centres unmarked); result = -16%
Structure (SMILES) = COC(=O)c1ccccc1C(=O)OC; result = 12%
Structure (SMILES) = Oc1cc(Cl)ccc1Oc1ccc(Cl)cc1Cl; result = -12%
Structure (SMILES) = COc1ccc(C=O)cc1OC; result = 2%
Structure (SMILES) = c1ccc2c(c1)Nc1ccccc1S2; result = 3%
Structure (SMILES) = C=C[C@H]1CN2CC[C@@]3(C(=O)Nc4ccccc43)[C@@H]2C[C@@H]1/C(=C\OC)C(=O)OC; result = 6%
Structure (SMILES) = CN(C)[C@@H]1C(=O)C(C(N)=O)=C(O)[C@@]2(O)C(=O)C3=C(O)c4c(O)cccc4[C@@](C)(O)[C@H]3[C@H](O)[C@@H]12; result = -2%
Structure (SMILES) = Nc1ncnc2c1ncn2[C@@H]1O[C@H](COP(N)(=O)O)[C@@H](O)[C@H]1O; result = 11%
Structure (SMILES) = O=c1cccc2n1C[C@@H]1CNC[C@H]2C1; result = -13%
Structure (SMILES) = COC[C@]12CN(C)C3[C@@H]4[C@H](OC)[C@H]1[C@@]3([C@@H](OC)C[C@H]2O)[C@]1(O)C[C@@]2(O)[C@H](OC(=O)c3ccccc3)[C@@H]1[C@]4(OC(C)=O)[C@@H](O)[C@@H]2OC; result = 3%

Block 3
Target: CRBN/Zinc finger protein Helios (Homo sapiens, UniProt Q96SW2+Q9UKS7)
Sequence of UniProt Q9UKS7 (whole entry, looked up): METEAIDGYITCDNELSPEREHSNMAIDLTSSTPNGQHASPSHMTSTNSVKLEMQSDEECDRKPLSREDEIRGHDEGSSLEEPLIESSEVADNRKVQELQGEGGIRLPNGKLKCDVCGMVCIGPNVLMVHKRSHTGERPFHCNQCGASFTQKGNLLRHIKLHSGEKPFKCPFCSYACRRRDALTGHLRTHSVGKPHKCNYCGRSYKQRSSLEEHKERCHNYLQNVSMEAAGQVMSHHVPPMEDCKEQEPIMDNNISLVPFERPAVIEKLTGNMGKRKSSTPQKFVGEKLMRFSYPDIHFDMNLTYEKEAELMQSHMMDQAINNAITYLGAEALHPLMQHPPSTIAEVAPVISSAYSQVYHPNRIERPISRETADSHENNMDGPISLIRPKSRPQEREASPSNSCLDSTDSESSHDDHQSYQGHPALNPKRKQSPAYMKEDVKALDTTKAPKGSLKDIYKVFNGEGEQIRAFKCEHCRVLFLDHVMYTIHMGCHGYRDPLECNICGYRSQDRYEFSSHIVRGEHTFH
Sequence of UniProt Q96SW2 (whole entry, looked up): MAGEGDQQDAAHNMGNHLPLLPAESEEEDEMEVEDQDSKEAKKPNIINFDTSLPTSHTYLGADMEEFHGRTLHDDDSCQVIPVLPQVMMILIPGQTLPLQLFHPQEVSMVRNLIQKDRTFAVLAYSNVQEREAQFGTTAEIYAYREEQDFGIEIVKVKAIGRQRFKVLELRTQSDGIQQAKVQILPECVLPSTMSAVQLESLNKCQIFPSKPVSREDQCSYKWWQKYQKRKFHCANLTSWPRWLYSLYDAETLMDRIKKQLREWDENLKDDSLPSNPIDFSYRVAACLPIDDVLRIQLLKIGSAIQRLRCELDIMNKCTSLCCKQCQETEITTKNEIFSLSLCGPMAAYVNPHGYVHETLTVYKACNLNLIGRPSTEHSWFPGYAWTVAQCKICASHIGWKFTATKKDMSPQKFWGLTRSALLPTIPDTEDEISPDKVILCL
Action: degrader
Method: HiBiT
Cell line: HEK293
Concentration: 123.5 nM
Endpoint: protein remaining
SMILES = O=C1CCC(N2Cc3c(ccc4c3OCC43CCN(CC4CCCCC4)CC3)C2=O)C(=O)N1 (centres unmarked); result = 47.8%
SMILES = O=C1CCC(N2Cc3c(ccc4c3OCC43CCN(Cc4ccccc4)CC3(F)F)C2=O)C(=O)N1 (centres unmarked); result = 59.9%
SMILES = O=C1CCC(N2Cc3c(ccc4c3OCC43CCN(Cc4ccsc4)CC3)C2=O)C(=O)N1 (centres unmarked); result = 23.9%
SMILES = O=C1CCC(N2Cc3c(ccc4c3OCC43CCCN(Cc4ccccc4)CC3)C2=O)C(=O)N1 (centres unmarked); result = 89.4%
SMILES = O=C1CCC(N2Cc3c(ccc4c3OCC43CCN(Cc4ccccc4)C3)C2=O)C(=O)N1 (centres unmarked); result = 77%
SMILES = O=C1CCC(N2Cc3c(ccc4c3OCC43CCN(Cc4ccccn4)CC3)C2=O)C(=O)N1 (centres unmarked); result = 57.9%

Further values, each from its own experiment
Target: Bromodomain-containing protein 4, BD1 (BRD4, Homo sapiens, UniProt O60885)
Concentration: 50 µM
Structure (SMILES) = COC[C@H]1OC(=O)c2coc3c2[C@@]1(C)C1=C(C3=O)[C@@H]2CCC(=O)[C@@]2(C)C[C@H]1OC(C)=O; inhibition = 4.05%
Structure (SMILES) = Cn1cc(C2=C(c3cn(C4CCN(Cc5ccccn5)CC4)c4ccccc34)C(=O)NC2=O)c2ccccc21; inhibition = 80.5%
